Published values of several laboratories.
Lines come from different studies, so protocols differ. “And” joins repeats or separate records; there may be more than shown.
PPARA ligand-binding domain: Peroxisome proliferator-activated receptor alpha, ligand-binding domain (PPARA, Homo sapiens, UniProt Q07869)
Sequence of UniProt Q07869 (whole entry, looked up): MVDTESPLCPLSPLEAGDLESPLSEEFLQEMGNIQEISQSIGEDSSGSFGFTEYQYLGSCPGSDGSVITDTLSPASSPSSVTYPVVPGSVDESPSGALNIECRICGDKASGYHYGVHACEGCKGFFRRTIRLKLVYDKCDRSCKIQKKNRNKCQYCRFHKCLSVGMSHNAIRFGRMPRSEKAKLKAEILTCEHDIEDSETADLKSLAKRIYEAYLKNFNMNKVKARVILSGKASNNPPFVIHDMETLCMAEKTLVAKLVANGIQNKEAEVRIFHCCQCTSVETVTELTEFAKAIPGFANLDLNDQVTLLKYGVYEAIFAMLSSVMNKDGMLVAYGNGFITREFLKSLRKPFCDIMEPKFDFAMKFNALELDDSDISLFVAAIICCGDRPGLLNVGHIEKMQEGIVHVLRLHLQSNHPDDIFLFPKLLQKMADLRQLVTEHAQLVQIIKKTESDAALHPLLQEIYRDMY
GBA2: Beta-glucosidase (GBA2, Homo sapiens, UniProt Q9HCG7)
Sequence of UniProt Q9HCG7 (whole entry, looked up): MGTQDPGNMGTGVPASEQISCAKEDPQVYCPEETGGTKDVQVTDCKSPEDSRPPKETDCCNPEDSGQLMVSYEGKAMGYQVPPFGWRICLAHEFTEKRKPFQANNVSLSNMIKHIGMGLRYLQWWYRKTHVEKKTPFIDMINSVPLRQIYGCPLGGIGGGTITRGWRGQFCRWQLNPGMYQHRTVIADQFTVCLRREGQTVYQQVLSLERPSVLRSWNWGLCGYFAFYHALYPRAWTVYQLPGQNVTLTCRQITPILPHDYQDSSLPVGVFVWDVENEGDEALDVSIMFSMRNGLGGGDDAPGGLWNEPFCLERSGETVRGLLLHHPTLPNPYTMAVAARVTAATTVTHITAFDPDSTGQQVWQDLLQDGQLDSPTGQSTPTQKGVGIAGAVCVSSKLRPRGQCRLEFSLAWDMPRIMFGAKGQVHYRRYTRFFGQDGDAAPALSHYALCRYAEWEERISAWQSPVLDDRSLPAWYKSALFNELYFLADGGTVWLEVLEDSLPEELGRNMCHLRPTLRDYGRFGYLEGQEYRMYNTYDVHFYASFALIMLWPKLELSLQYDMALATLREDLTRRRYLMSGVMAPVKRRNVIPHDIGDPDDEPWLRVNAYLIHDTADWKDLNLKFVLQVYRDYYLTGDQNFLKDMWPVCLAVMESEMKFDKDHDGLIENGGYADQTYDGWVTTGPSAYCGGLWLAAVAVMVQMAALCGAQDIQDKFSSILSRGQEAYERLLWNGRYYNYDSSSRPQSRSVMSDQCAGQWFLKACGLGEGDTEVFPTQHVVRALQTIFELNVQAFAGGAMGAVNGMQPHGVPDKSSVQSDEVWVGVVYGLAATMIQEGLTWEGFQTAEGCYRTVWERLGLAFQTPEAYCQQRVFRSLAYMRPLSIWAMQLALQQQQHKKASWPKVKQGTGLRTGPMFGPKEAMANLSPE
PIK3CG: Phosphatidylinositol 4,5-bisphosphate 3-kinase catalytic subunit gamma isoform (PIK3CG, Homo sapiens, UniProt P48736)
Sequence of UniProt P48736 (whole entry, looked up): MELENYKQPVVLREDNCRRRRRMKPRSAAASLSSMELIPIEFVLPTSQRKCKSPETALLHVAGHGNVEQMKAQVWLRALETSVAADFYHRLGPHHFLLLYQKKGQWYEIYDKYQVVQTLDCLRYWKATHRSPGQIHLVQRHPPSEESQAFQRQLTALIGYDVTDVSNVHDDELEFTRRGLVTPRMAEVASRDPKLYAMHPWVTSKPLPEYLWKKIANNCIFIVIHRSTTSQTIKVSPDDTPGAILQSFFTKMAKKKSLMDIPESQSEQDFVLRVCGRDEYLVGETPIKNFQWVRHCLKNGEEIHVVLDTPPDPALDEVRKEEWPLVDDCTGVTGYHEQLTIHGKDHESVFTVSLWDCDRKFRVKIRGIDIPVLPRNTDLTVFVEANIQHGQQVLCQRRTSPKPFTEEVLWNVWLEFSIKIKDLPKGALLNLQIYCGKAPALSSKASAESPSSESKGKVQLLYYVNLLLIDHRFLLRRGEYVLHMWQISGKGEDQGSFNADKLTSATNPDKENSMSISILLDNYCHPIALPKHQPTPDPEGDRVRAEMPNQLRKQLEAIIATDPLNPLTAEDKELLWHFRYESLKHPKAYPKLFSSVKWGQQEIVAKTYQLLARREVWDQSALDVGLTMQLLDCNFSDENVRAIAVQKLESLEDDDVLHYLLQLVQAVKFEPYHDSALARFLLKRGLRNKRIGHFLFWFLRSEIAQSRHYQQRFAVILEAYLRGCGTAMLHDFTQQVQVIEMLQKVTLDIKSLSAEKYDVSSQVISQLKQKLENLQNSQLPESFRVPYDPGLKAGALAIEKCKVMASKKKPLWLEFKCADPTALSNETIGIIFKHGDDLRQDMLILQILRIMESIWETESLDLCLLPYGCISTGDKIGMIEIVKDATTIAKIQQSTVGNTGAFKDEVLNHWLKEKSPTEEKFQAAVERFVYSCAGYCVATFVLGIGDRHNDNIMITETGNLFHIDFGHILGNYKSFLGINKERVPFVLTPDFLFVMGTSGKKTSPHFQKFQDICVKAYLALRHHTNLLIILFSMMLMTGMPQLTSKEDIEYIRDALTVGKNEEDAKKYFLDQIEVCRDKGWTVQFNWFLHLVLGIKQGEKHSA
Chymotrypsinogen A: Chymotrypsinogen A (Bos taurus, UniProt P00766)
Sequence of UniProt P05177 (whole entry, looked up): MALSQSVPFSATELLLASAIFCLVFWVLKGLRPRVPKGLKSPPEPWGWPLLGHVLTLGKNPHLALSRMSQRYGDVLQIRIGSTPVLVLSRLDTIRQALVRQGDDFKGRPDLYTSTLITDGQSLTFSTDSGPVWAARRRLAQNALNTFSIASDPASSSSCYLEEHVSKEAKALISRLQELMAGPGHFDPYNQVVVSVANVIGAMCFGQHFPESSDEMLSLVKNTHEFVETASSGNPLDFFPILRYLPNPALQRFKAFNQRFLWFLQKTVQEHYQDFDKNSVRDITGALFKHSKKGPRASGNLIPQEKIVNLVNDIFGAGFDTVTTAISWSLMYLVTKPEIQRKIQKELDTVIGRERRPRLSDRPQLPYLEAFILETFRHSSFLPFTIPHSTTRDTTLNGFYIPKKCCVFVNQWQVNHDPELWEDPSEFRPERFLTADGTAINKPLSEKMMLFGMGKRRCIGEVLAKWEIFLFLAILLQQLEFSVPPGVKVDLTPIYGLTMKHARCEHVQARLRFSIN
Sequence of UniProt Q923J1 (whole entry, unmodified, looked up): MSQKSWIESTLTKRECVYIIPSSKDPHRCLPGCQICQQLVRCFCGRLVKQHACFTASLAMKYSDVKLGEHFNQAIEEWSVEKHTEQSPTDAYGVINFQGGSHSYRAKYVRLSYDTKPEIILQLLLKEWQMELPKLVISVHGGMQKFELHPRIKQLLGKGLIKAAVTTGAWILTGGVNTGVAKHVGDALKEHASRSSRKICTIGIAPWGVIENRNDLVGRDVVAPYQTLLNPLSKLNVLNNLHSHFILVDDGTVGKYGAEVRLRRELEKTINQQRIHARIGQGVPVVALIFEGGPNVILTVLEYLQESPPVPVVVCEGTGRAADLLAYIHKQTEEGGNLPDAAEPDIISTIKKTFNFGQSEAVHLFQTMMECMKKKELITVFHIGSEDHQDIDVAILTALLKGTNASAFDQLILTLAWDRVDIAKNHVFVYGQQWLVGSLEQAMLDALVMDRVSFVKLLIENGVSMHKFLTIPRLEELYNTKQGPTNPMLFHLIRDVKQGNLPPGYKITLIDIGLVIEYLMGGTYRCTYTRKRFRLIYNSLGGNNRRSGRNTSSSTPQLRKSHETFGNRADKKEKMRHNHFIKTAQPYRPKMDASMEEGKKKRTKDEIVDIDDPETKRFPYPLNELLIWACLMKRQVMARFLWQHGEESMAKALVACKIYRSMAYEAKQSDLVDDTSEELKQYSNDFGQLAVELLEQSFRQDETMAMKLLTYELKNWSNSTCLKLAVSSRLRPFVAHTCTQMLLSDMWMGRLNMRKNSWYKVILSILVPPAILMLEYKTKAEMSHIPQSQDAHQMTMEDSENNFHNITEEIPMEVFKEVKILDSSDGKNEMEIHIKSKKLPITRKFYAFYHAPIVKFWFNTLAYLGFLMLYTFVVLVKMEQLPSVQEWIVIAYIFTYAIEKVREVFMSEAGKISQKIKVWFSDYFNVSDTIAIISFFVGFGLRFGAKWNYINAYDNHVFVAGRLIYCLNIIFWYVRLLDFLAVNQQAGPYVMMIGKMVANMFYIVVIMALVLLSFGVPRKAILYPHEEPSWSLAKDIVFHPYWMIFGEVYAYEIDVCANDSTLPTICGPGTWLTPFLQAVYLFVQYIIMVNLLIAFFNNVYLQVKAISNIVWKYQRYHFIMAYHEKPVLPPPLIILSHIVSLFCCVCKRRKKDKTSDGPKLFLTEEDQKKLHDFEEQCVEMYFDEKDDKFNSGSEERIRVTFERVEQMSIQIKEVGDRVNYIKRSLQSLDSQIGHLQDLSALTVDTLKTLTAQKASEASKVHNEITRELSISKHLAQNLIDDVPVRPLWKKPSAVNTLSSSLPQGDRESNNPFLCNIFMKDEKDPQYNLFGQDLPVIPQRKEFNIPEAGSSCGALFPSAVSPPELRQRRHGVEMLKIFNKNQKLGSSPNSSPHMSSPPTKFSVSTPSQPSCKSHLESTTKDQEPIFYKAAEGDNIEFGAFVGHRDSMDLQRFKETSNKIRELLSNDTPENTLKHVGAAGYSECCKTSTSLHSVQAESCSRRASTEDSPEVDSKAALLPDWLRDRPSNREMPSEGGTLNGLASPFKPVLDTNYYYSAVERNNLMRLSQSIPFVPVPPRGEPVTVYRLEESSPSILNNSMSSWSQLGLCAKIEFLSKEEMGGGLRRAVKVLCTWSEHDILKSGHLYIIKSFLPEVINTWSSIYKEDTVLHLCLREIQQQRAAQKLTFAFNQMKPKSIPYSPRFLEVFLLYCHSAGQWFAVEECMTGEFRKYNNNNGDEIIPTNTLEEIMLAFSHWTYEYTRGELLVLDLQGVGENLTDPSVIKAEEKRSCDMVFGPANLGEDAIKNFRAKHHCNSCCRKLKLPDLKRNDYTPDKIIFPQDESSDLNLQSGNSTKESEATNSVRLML

Compound = C=CC(=O)Nc1cccc(Cn2ncc3cnc(Nc4cnn(CCOC)c4)nc32)c1; tested on = NEK7 human; assay = binding, KINOMEscan; setting = 100 nM; how to read = lower = stronger binding; quantity = percent of control; value = 97%
Compound = NC1(Cc2ccc(Cl)cc2)CCN(c2ncnc3[nH]ccc23)CC1; tested on = Trpm7 (Mus musculus, UniProt Q923J1, F924W); assay = calcium signal; quantity = IC50; value = ~530 µM
Compound = Cc1c(Cc2cccc(OC(C)C(=O)O)c2)c2ccc(C(=O)NC(C)c3ccc(C(C)(C)C)cc3)cc2n1C (mixture of isomers); tested on = PPARA ligand-binding domain; assay = reporter gene, luciferase reporter; test system = HEK293T, Gal4-PPARα LBD; quantity = IC50; value = 3.3 µM
Compound = OC[C@@H]1[C@@H](O)[C@H](O)[C@@H](O)CN1CCCCCOCCC12CC3CC(CC(C3)C1)C2; tested on = GBA2; assay = inhibitor, 4MU-β-D-glucopyranoside; test system = HEK293T homogenates overexpressing GBA2; quantity = IC50; value = 0.005 µM
Compound = Nc1ncc(-c2cc(-c3cnn(CC(F)(F)F)c3)ncc2F)nc1C(=O)NC1CNCC(F)C1 (stereo not shown); tested on = MAP3K3; assay = KINOMEscan; setting = 1 µM; how to read = baseline: DMSO control; quantity = remaining binding; value = 100%
Compound = O=C1/C(=N\c2ccc(Cl)cc2Br)c2ccccc2N1Cc1ccccc1 (mixture of isomers); tested on = PIK3CG; assay = enzyme activity, inhibitor, ADP detection; quantity = IC50; value = 0.0164 µM
Compound = Cc1cnc2nc1Nc1cccc(c1)COCc1cc(ccc1OCCN1CCOCC1)N2; tested on = JAK2 (Homo sapiens, UniProt O60674); assay = enzyme activity, inhibitor, FRET; quantity = IC50; value = 0.034 µM
Compound = Cc1ncsc1-c1ccc(C(C)NC(=O)C2CC(O)CN2C(=O)C(NC(=O)CCCCCCCCCCN2CCCC(Nc3ncc(Cl)c(Nc4ccccc4S(=O)(=O)C(C)C)n3)C2)C(C)(C)C)cc1 (stereo not shown); tested on = 22Rv1; assay = RNA-seq, measured: S1PR3 mRNA; setting = concentration not given; how to read = baseline: DMSO; quantity = log2 fold change; value = -1.68
Compound = CC(C)(C)OC(=O)NCCOc1ccccc1NC(=O)C(C(F)(F)F)C(F)(F)F; tested on = Chymotrypsinogen A; assay = enzyme activity, inhibitor, fluorescence; quantity = IC50; value = 49 µM
Compound = OB(O)c1sccc1/C=N/OCc1ccccc1; tested on = PLAU (Homo sapiens, UniProt P00749); assay = enzyme activity, inhibitor; quantity = IC50; value = > 100 µM
Compound = Cc1nn(-c2cccc(N)c2)c(=O)c2cnc(Nc3ccc(N4CCNCC4)cc3)nc12; tested on = NEK1 (Homo sapiens, UniProt Q96PY6); assay = enzyme activity, inhibitor; quantity = IC50; value = > 10 µM
Compound = COc1cc(OC)c(NC(=O)Nc2nccnn2)cc1Cl; tested on = CHEK1 (Homo sapiens, UniProt O14757); assay = enzyme activity, inhibitor; quantity = IC50; value = > 10 µM
Compound = COC1CN([C@H]2CC[C@H]([C@@]3(C)Oc4c(Cl)cc(C(=O)NCc5c(SC)cc(C)[nH]c5=O)c(C)c4O3)CC2)C1; assay = RNA-seq, measured: DZIP1 mouse homolog; test system = mouse, HT-1376 xenograft, whole blood; setting = dose not given; how to read = baseline: vehicle; quantity = log2 fold change; value = 1.17
Compound = COc1cc(/C=C/C(=O)Oc2ccc(C(F)(F)F)c(C(F)(F)F)c2)ccc1O; tested on = SRD5A1 (Homo sapiens, UniProt P18405); assay = enzyme activity in cells, inhibitor; quantity = IC50; value = 10.1 µM
Compound = OC[C@@H]1[C@@H](O)[C@H](O)[C@@H](O)CN1CCCCCOCc1ccc(-c2ccnc(F)c2)cc1; tested on = GBA2; assay = inhibitor, 4MU-β-D-glucopyranoside; test system = HEK293T homogenates overexpressing GBA2; quantity = IC50; value = 0.004 µM
Compound = Cc1ccc(C2CC(=O)N2S(=O)(=O)c2cccc(Cl)c2)cc1 (stereo not shown); tested on = Chymotrypsinogen A; assay = enzyme activity, inhibitor, fluorescence; quantity = IC50; value = 0.17 µM
Compound = Cc1cc(NC2CCN(C)CC2)ccc1-c1cc2c(N3CCC[C@H](C(=O)NCc4ccc(OC(F)(F)F)cc4)C3)ncnc2[nH]1; tested on = MAP2K1 (Homo sapiens, UniProt Q02750); assay = enzyme activity, inhibitor, mobility shift; quantity = IC50; value = > 8 µM
Compound = CNS(=O)(=O)Nc1nccc(Cc2c(C)c3ccc(Oc4ncccc4F)cc3oc2=O)c1F; tested on = NCI-H1819; assay = cell viability; setting = 7 days; quantity = IC50; value = > 1 µM
Compound = CN1CCCNC(=O)c2cccc(c2)C(=O)NCCCN(C)CCCNc2cccc3c2C(=O)c2cccc(c2C3=O)NCCC1; tested on = SAS; assay = RNA-Seq, measured: NOSIP mRNA; setting = 1 µM, 6 h; how to read = baseline: untreated cells; quantity = log2 fold change; value = -0.658
Compound = Cc1c(Cc2ccc(Cl)c(OC(C)C(=O)O)c2)c2ccc(C(=O)NCc3ccc(C(C)(C)C)cc3)cc2n1CC(C)C (stereo not shown); tested on = PPARA ligand-binding domain; assay = reporter gene, luciferase reporter; test system = HEK293T, Gal4-PPARα LBD; quantity = IC50; value = 2.64 µM
Compound = OC[C@H]1[C@@H](O)[C@H](O)[C@@H](O)CN1CCCCCOCc1ccc(-c2ccccc2)c(C(F)(F)F)c1; tested on = GBA2; assay = inhibitor, 4MU-β-D-glucopyranoside; test system = HEK293T homogenates overexpressing GBA2; quantity = IC50; value = 0.0001 µM
Compound = Cc1c(Cc2cc(Cl)cc(OC(C)C(=O)O)c2)c2ccc(C(=O)NC(C)c3ccc(C(C)(C)C)cc3)cc2n1C (stereo not shown); tested on = PPARA ligand-binding domain; assay = reporter gene, luciferase reporter; test system = HEK293T, Gal4-PPARα LBD; quantity = IC50; value = 214 µM
Compound = COc1ccccc1/C=C1\C(=O)Nc2ccc(Nc3nc(C)nc4ccccc34)cc21; tested on = PIK3CG; assay = enzyme activity, inhibitor, ADP detection; quantity = IC50; value = 0.051 µM
Compound = CNC(=O)C1CCCN(C(=O)C2CC3CCC2N3C(=O)[C@@H]2C[C@@H](O)CN2C(=O)NCc2cccc(Cl)c2F)C1 (mixture of isomers); tested on = Cytochrome P450 1A2 (CYP1A2, Homo sapiens, UniProt P05177); assay = preincubation with NADPH; test system = human; setting = 0.617 µM; how to read = baseline: negative control; quantity = remaining activity; value = 106% and 108%
Compound = CCN(CC)CC#CCNc1ccnc2cc(Cl)ccc12; tested on = Salmonella typhimurium; assay = mini-Ames test; test system = TA97a; setting = 1000.0 µg/well, without S9; quantity = revertants; value = 0 revertants/well
